Results of several laboratories.
Parts stem from different laboratories: compare values within a part only. Values joined by “and” are separate records of one study, mostly repeats; a detail may differ.

Series 1
SMILES: c1ccc(N2CCN(Cc3nc4ccccc4[nH]3)CC2)nc1
Tested at: 1 µM
For MAP2K6 (Homo sapiens, UniProt P52564); binding, competition with immobilised ligand: remaining binding read 100%.
It gave 98% for remaining binding (PRKCQ (Homo sapiens, UniProt Q04759); cell-free assay, competition with immobilised ligand).
It gave 87% for remaining binding (NTRK3 (Homo sapiens, UniProt Q16288); cell-free assay, competition with immobilised ligand).
For BRSK2 (Homo sapiens, UniProt Q8IWQ3); binding, competition with immobilised ligand: remaining binding read 100%.
The remaining binding was 100% (Tyrosine-protein kinase ABL1, non-phosphorylated (ABL1, Homo sapiens, UniProt P00519, F317I); binding, competition with immobilised ligand).
TLK2 (Homo sapiens, UniProt Q86UE8); cell-free assay, competition with immobilised ligand — remaining binding: 100%.
The remaining binding was 87% (Tyrosine-protein kinase ABL1, non-phosphorylated (ABL1, Homo sapiens, UniProt P00519, H396P); binding, competition with immobilised ligand).
The remaining binding was 100% (FLT3 (Homo sapiens, UniProt P36888, N841I); binding, competition with immobilised ligand).
The remaining binding was 97% (ALK (Homo sapiens, UniProt Q9UM73, L1196M); cell-free assay, competition with immobilised ligand).
It gave 100% for remaining binding (FLT3 (Homo sapiens, UniProt P36888, F691L/ITD); binding, competition with immobilised ligand).
For PRKAA1 (Homo sapiens, UniProt Q13131); cell-free assay, competition with immobilised ligand: remaining binding read 100%.
For Ribosomal protein S6 kinase alpha-4, N-terminal kinase domain (RPS6KA4, Homo sapiens, UniProt O75676); binding, competition with immobilised ligand: remaining binding read 100%.
For FRK (Homo sapiens, UniProt P42685); cell-free assay, competition with immobilised ligand: remaining binding read 100%.
The remaining binding was 88% (CAMK4 (Homo sapiens, UniProt Q16566); binding, competition with immobilised ligand).
It gave 100% for remaining binding (CSNK1G3 (Homo sapiens, UniProt Q9Y6M4); cell-free assay, competition with immobilised ligand).
It gave 95% for remaining binding (ACVRL1 (Homo sapiens, UniProt P37023); binding, competition with immobilised ligand).
The remaining binding was 91% (Tyrosine-protein kinase JAK1, JH1 (JAK1, Homo sapiens, UniProt P23458); binding, competition with immobilised ligand).
The remaining binding was 100% (CDK3 (Homo sapiens, UniProt Q00526); binding, competition with immobilised ligand).
The remaining binding was 100% (WEE1 (Homo sapiens, UniProt P30291); binding, competition with immobilised ligand).
The remaining binding was 95% (PRKD1 (Homo sapiens, UniProt Q15139); binding, competition with immobilised ligand).
For FGFR3 (Homo sapiens, UniProt P22607); cell-free assay, competition with immobilised ligand: remaining binding read 96%.
For MAP2K4 (Homo sapiens, UniProt P45985); binding, competition with immobilised ligand: remaining binding read 100%.
For CDKL5 (Homo sapiens, UniProt O76039); binding, competition with immobilised ligand: remaining binding read 100%.
It gave 100% for remaining binding (CDC42BPG (Homo sapiens, UniProt Q6DT37); competition binding).
COQ8A (Homo sapiens, UniProt Q8NI60); cell-free assay, competition with immobilised ligand — remaining binding: 98%.

Series 2
SMILES: COc1cc2ncc(-c3ccccc3)nc2cc1OC
Observed: enzyme activity
Mode: inhibitor
Tested at: 0.5 µM
Relative to: control
For BLK (Homo sapiens, UniProt P51451): remaining activity read 103%.
It gave 78.7% for remaining activity (HIPK2 (Homo sapiens, UniProt Q9H2X6)).
The remaining activity was 97.5% (WNK3 (Homo sapiens, UniProt Q9BYP7)).
EPHB4 (Homo sapiens, UniProt P54760) — remaining activity: 86.4%.
It gave 86.7% for remaining activity (MAPKAPK3 (Homo sapiens, UniProt Q16644)).
For PRKACG (Homo sapiens, UniProt P22612): remaining activity read 87.6%.
The remaining activity was 98.5% (RPS6KA6 (Homo sapiens, UniProt Q9UK32)).
It gave 92.8% for remaining activity (EPHB1 (Homo sapiens, UniProt P54762)).
It gave 92.6% for remaining activity (PDPK1 (Homo sapiens, UniProt O15530)).
For DYRK3 (Homo sapiens, UniProt O43781): remaining activity read 95.4%.
The remaining activity was 99.3% (EPHA4 (Homo sapiens, UniProt P54764)).
For RPS6KA5 (Homo sapiens, UniProt O75582): remaining activity read 91.8%.
For Cyclin-dependent kinase 6, with cyclin D3 (CDK6, Homo sapiens, UniProt Q00534): remaining activity read 93.7%.
The remaining activity was 105% (Cyclin-dependent kinase 1, with cyclin B (CDK1, Homo sapiens, UniProt P06493)).
STK17A (Homo sapiens, UniProt Q9UEE5) — remaining activity: 95.5%.
It gave 95.2% for remaining activity (AXL (Homo sapiens, UniProt P30530)).
For MAP4K4 (Homo sapiens, UniProt O95819): remaining activity read 62.1%.
The remaining activity was 93.5% (STK16 (Homo sapiens, UniProt O75716)).
SRMS (Homo sapiens, UniProt Q9H3Y6) — remaining activity: 102%.
It gave 97.5% for remaining activity (Cyclin-dependent kinase 4, with cyclin D3 (CDK4, Homo sapiens, UniProt P11802)).
The remaining activity was 86.4% (HIPK4 (Homo sapiens, UniProt Q8NE63)).
CAMK2B (Homo sapiens, UniProt Q13554) — remaining activity: 93.3%.
For TSSK2 (Homo sapiens, UniProt Q96PF2): remaining activity read 85.7%.
The remaining activity was 92.4% (PHKG1 (Homo sapiens, UniProt Q16816)).

Series 3
SMILES: C[C@@H]1CN(c2ccc(-c3cc(C(=O)NCCOCCOCCOCCOCCNC(=O)/C=C/c4[nH]cc(C(=O)N[C@@H](CC(N)=O)c5ccc(F)c(Cl)c5)c4-c4ccc(Cl)cc4F)ccc3F)cc2NC(=O)c2c[nH]c(=O)cc2C(F)(F)F)C[C@H](C)N1C
Mode: degrader
Time: 24 h
WDR5/DCAF1: WDR5/DCAF1 (Homo sapiens, UniProt P61964+Q9Y4B6)
The “remaining protein level” was 63.8% and 66.8% and 74.6% (WDR5/DCAF1; HiBiT luminescence; 1510 nM).
WDR5 (Homo sapiens, UniProt P61964); Jess capillary immunoassay, measured: WDR5 over vinculin; 11 nM; relative to: DMSO — “remaining protein level”: 109% and 87.5% and 89.5% and 93.5% and 91.9% and 106%.
For WDR5/DCAF1; HiBiT luminescence; 34.2 nM: “remaining protein level” read 106% and 92.8% and 93.2%.
It gave 110% and 95.9% and 107% for “remaining protein level” (WDR5/DCAF1; HiBiT luminescence; 2 nM).

Series 4
Organism: Sarcocystis neurona
Observed: parasite activity
Tested at: concentration not given
`Cc1cccc(CN2CCN(C(c3ccccc3)c3ccc(Cl)cc3)CC2)c1.Cl.Cl` (centres unmarked): activity class “inactive”.
`CN1[C@@H]2CC[C@H]1C[C@@H](OC(c1ccccc1)c1ccccc1)C2.CS(=O)(=O)O`: activity class “inactive”.
For `CN1CCN(c2c(F)cc3c(=O)c(C(=O)O)cn4c3c2SCC4)CC1.Cl`, activity class read “inactive”.
`CC(CN1c2ccccc2Sc2ccccc21)N(C)C.Cl` (centres unmarked) — result for activity class: “inactive”.
`Cl.O=C(O)/C=C/c1ccc(Cn2ccnc2)cc1` — result for activity class: “inactive”.
`CC(N/C(=N\C#N)Nc1ccncc1)C(C)(C)C.O` (centres unmarked): activity class “inactive”.
Under activity class, `COc1cc(C[C@@H](CO)[C@H](CO)Cc2ccc(O)c(OC)c2)ccc1O` is recorded as “inactive”.
For `CN1CCN(c2nc3cc(C(F)(F)F)ccc3n3cccc23)CC1`, activity class read “inactive”.
Under activity class, `C[C@]12CCC(=O)C=C1CC[C@@H]1[C@@H]2[C@@H](O)C[C@@]2(C)[C@H]1CC[C@]2(O)C(=O)COC(=O)CCC(=O)O` is recorded as “inactive”.

Some of these lines once more (series 1):
The remaining binding was 100% (Tyrosine-protein kinase ABL1, non-phosphorylated (ABL1, Homo sapiens, UniProt P00519, F317I); binding, competition with immobilised ligand).
TLK2 (Homo sapiens, UniProt Q86UE8); cell-free assay, competition with immobilised ligand — remaining binding: 100%.
The remaining binding was 87% (Tyrosine-protein kinase ABL1, non-phosphorylated (ABL1, Homo sapiens, UniProt P00519, H396P); binding, competition with immobilised ligand).
The remaining binding was 100% (FLT3 (Homo sapiens, UniProt P36888, N841I); binding, competition with immobilised ligand).
The remaining binding was 97% (ALK (Homo sapiens, UniProt Q9UM73, L1196M); cell-free assay, competition with immobilised ligand).
It gave 100% for remaining binding (FLT3 (Homo sapiens, UniProt P36888, F691L/ITD); binding, competition with immobilised ligand).
For PRKAA1 (Homo sapiens, UniProt Q13131); cell-free assay, competition with immobilised ligand: remaining binding read 100%.
For Ribosomal protein S6 kinase alpha-4, N-terminal kinase domain (RPS6KA4, Homo sapiens, UniProt O75676); binding, competition with immobilised ligand: remaining binding read 100%.
For FRK (Homo sapiens, UniProt P42685); cell-free assay, competition with immobilised ligand: remaining binding read 100%.
The remaining binding was 88% (CAMK4 (Homo sapiens, UniProt Q16566); binding, competition with immobilised ligand).
